# Assay results collected from several papers.
# Every numbered part comes from another study and shows a few of its results, in no order. Substitutions count along the parent as printed.

# Set 1
# Target: CCNA1, cyclin fold, Cln2 fusion (human)
# Technique: yeast growth competition, sequencing
# Matrix: yeast
# Notes: weak parent motif
# Relative to: not given
# Direction: higher = stronger binding
# Starting sequence: INSM1 docking peptide (human); PKAIRKLHFEDEV; partner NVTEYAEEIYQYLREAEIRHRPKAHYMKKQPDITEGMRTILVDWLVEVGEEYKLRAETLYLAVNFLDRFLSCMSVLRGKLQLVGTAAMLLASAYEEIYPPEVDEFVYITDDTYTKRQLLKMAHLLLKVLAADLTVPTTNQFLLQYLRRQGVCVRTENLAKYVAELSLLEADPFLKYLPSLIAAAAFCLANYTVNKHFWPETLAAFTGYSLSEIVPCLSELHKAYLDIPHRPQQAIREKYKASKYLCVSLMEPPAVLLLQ
Variant,normalised enrichment score
PKAIRHLHFEDEV [K6H],0.445
PKAIRKLHFKDEV [E10K],0.0581
PKAIRKLHFADEV [E10A],0.567
PKAIRKLHFEDPV [E12P],0.644
PKAIRKLHFEYEV [D11Y],0.459

# Set 2
# Target: Histone acetyltransferase KAT6A, winged helix 1, GST fusion (KAT6A, Homo sapiens, UniProt Q92794, residues 1-85)
# Technique: protein binding microarray
# Molecule type: double-stranded DNA, one strand shown
# Matrix: in vitro
# Concentration: not given
# Notes: 8-mer, flanks averaged, mean of 2 arrays, mostly near background
# Relative to: not given
# Direction: higher = stronger binding
# Construct (chain): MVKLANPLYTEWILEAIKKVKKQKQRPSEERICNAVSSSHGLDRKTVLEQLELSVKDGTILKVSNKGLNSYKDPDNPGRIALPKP
Strand,E-score
AGGAATAA,-0.187
GGATATAC,0.0491
ATCTGTGC,-0.088
CTCCAACC,-0.0469
TAGCGAGA,-0.0947
CCCGCTTA,0.223
GCGTACCA,0.0114
GACGAGGA,-0.243
CTACGAAG,-0.224

# Set 3
# Target: RNA binding protein fox-1 homolog 2, RRM domain, GST-SBP tag (RBFOX2, Homo sapiens, UniProt O43251-10, residues 100-194)
# Technique: RNA Bind-n-Seq
# Molecule type: RNA
# Matrix: in vitro
# Concentration: 365 nM
# Notes: natural RNA segment, single round, ends assumed
# Relative to: no-protein control
# Direction: higher = stronger binding
# All sequences stand within: GGGAGUUCUACAGUCCGACGAUC … UGGAAUUCUCGGGUGCCAA
# Construct (chain): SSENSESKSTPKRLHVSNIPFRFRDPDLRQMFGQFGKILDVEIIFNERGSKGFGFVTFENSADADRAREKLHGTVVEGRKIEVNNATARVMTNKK
Strand,RBNS enrichment (R)
UUUUUGACUCAUGGUUUAAAGGCAUCCUUUCCAUCUUGGGGAGGUCAUGGGUGCUCCUGGCAACUUGCUUGAGGAAGAUAGGUCAGAAAGCAGAGUGGACCAACCGUUCA,0.829
UUUCAAAGAAUAAAAGCCUUUGGAGAGUUGCGGCAGUUCUGGGGGCGGGCUCAGGAGAGUCCAUAGAUCAGCCGUAACUGGAACGUAGAAUCUACGUCUGCCUCUGAAUG,0.319
UGUUACCGCAGGUCAGUAUUUUCUAAGGUGCGCGAGGCACACGGAUCUGAGUGAGGCGUAGGAGGGAAGGCGCAUGGACUGGAACUUGCAAGUUGACUCUGGUUAUGCAA,2.27
UAGCUUAACGGUAGUCUUUAGAUCAUAAGAAAUAUAUAAAUUAGUAUGCACCUUAUCUGCCUGUUGUGGGUUUCUUAAACUUGCACUUCCUACCCACCCAAAGAUAGAUA,1.13
AGCCUUCGCACUCAAUGCCAACUUUUUGUUACAGAUUAAUUUUUCCAUAAAACCAUUUUUUGAACCAAUCAGUAAUUUUAAGGUUUUGUUUGUUCUAAAUGUAAGAGUUC,0.499
AUGUGUGUCUAAUGGCGAGCUGACAGCCCUCUGCUGAUAUUUGGCAGAAGGCACCAGACCAGCCCAGCAGCAAAUGCUCAUCUUUGGGAACAUAGGAAGCUUUACCUUGG,0.206
UGAAAACAGGGGCACACAGAAAUUUGAUUUGUGGCCAAAUUGGAUGAAAAAGAUGAGGCUCUAAGGAAAUGGUGGCAUGAAGACCCUCUCCCUUCUUUGUAGAAUUAAGA,5.9
UGUAUGAGAUCUGUGCUGUAAGGCUCCCAGUGUUCCUUCAGCAUUAAUGCUUUCCCACCUGCUCCAAGAGAACUAGCCCUCAACCAGUGCUGCGGCCUGUUCAUAUGCUC,0.568

# Mixed results
Molecule,target,assay,system,conditions,how to read,quantity,result
"PhoQ, residues 284 288 289 292 302 303 SLKLQV","PhoP, residues 12 14 15 18 19 LWHSL (Escherichia coli, UniProt P23836)","Sort-seq, measured: YFP reporter",E. coli,"PhoQ-PhoP variant library, with: 10 µM Mg2+","relative to: high Mg2+ state, higher = stronger signaling",fold induction,9.15
